Assay results pooled from the literature.
“And” joins repeats or separate records; there may be more than shown. ± gives the spread as reported.
U2AF2: U2AF2 148-342 (Homo sapiens, UniProt P26368)
UniProt P26368, sequence (whole entry, looked up): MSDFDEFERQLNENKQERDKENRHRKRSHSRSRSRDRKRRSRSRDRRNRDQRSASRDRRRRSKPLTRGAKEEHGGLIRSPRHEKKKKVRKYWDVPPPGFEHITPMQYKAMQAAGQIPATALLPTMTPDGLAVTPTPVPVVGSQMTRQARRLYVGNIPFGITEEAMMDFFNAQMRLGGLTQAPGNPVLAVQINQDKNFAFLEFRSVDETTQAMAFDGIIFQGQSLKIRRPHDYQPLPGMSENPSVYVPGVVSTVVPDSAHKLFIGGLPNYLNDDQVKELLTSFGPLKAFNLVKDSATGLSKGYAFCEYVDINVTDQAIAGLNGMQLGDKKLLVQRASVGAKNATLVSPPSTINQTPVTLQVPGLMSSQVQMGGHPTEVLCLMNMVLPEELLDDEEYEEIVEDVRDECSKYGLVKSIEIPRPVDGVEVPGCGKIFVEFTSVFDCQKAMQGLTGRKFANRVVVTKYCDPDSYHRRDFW
T1: itself; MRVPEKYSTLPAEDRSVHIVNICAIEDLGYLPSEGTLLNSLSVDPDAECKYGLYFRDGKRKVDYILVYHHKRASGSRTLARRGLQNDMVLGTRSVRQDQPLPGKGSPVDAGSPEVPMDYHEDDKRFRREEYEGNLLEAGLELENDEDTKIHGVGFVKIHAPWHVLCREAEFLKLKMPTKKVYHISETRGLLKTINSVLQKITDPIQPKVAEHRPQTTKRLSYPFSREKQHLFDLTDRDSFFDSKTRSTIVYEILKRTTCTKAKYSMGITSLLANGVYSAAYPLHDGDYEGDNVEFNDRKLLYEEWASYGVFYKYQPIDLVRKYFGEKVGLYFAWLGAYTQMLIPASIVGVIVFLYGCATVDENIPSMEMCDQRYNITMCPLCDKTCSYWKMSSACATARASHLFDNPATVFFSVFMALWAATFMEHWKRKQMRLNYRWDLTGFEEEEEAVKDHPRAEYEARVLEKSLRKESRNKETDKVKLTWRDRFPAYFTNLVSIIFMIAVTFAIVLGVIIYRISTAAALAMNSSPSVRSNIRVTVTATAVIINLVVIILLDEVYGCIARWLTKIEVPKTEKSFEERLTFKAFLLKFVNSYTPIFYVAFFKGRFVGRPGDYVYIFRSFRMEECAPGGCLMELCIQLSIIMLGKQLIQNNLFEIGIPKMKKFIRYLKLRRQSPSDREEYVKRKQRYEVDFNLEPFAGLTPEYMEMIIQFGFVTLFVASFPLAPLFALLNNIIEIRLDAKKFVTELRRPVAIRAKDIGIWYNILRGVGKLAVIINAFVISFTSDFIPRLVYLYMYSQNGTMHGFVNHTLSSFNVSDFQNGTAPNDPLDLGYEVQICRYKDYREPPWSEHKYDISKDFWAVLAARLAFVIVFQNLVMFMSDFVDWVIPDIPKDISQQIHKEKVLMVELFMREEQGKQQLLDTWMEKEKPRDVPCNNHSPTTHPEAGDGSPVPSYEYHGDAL
B1: Bet v 4 dimer (Betula, UniProt Q39419); chain MADDHPQDKAERERIFKRFDANGDGKISAAELGEALKTLGSITPDEVKHMMAEIDTDGDGFISFQEFTDFGRANRGLLKDVAKIF
UniProt P13393, sequence (whole entry, looked up): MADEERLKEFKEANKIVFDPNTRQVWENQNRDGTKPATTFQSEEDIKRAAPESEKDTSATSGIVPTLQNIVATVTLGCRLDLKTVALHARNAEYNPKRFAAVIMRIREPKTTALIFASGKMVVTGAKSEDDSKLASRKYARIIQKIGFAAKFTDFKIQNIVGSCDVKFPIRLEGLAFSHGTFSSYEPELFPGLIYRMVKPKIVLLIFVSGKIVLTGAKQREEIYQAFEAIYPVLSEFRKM

Molecule | tested on | test | system | conditions | scale | measurement | result
MXAN_1565 GAF-AAA+ domains (Myxococcus xanthus) | itself | SEC |  |  |  | subunits per oligomer | 2
glutamate decarboxylase holoenzyme, covalently bound PLP (Bacteroides fragilis) | itself | native gel |  |  |  | subunits per oligomer | 4
B1 (Bet v 4 dimer) | itself | SEC |  |  |  | subunits per oligomer | 2
ccmK2 fragment H75N (Synechococcus elongatus) | itself | SEC |  |  |  | subunits per oligomer | 6
mgtE (Bacillus firmus) | itself | SEC |  |  |  | subunits per oligomer | 2
Gl2 (Gossypium hirsutum) | itself | native gel electrophoresis |  |  |  | subunits per oligomer | 4
ACAT1 fragment, pY407 (Homo sapiens) | itself | native gel |  | phosphorylated, wild type |  | subunits per oligomer | 4
GTTCCTGAAGGGGGGGCGGGGTGGGTATAAAAGGGTCAAGTCAATCGGTCC (dsDNA; 5'-amino-C6 primer) | SPT15 full length assumed (Saccharomyces cerevisiae, UniProt P13393) | array | double-stranded DNA, one strand shown | TBP alone |  | Kd | 122.2 ± 0.7 nM
NuMA fragment SpM alanine substitutions (Homo sapiens) | itself | mass photometry |  |  |  | subunits per oligomer | 2
HerA (Paenibacillus sp.) | itself | AUC |  |  |  | subunits per oligomer | 6
HSP90 fragment (Plasmodium falciparum) | itself | mass photometry |  |  |  | subunits per oligomer | 2
sodN mature R47A (Streptomyces coelicolor) | itself | SEC |  |  |  | subunits per oligomer | 6 and 3
ATAT1 (Homo sapiens) | itself | mass photometry |  |  |  | subunits per oligomer | 2
GUUCCCGCU (ssRNA) | U2AF2 | sequencing of bound RNA | RNA | motif only |  | Kd | 3370 nM
cyclase-phosphotriesterase fragment (Ruegeria pomeroyi) | itself | X-ray crystallography |  |  |  | subunits per oligomer | 10
Ano1 (Mus musculus, UniProt Q8BHY3) | T1, itself | cryo-EM |  |  |  | subunits per oligomer | 2
LECA (Pisum sativum) | itself | SAXS |  | 40 °C |  | subunits per oligomer | 2
human cathepsin D | PP6C (human) | co-immunoprecipitation, IP-MS | CYB5R4 knockout cells | concentration not given | reference: CYB5R4 knockout over parental | log2 fold change | 0.62
DNMT3L/sfGFP fusion (Homo sapiens) | itself | mass photometry |  |  |  | subunits per oligomer | 2
PopZ del110-122 (Caulobacter crescentus) | itself | sedimentation velocity AUC |  | 25 °C, no MgCl2 |  | subunits per oligomer | 6
AGUUAUUUU (ssRNA) | U2AF2 | sequencing of bound RNA | RNA | motif only |  | Kd | 1160 nM

A few entries again:
Molecule | tested on | test | system | conditions | scale | measurement | result
GUUCCCGCU (ssRNA) | U2AF2 | sequencing of bound RNA | RNA | motif only |  | Kd | 3370 nM
cyclase-phosphotriesterase fragment (Ruegeria pomeroyi) | itself | X-ray crystallography |  |  |  | subunits per oligomer | 10
Ano1 (Mus musculus, UniProt Q8BHY3) | T1, itself | cryo-EM |  |  |  | subunits per oligomer | 2
